# Assay results from different studies.
# Every numbered part comes from another study and shows a few of its results, in no order. Changes are numbered by the printed parent chain.

# Sample 1
# Target: Histone acetyltransferase KAT6A, winged helix 1, GST fusion (KAT6A, Homo sapiens, UniProt Q92794, residues 1-85)
# Technique: protein binding microarray
# Molecule type: double-stranded DNA, one strand shown
# Matrix: in vitro
# Concentration: not given
# Setting: 8-mer, flanks averaged, mean of 2 arrays, mostly near background
# Relative to: not given
# Direction: higher = stronger binding
# Residues (chain): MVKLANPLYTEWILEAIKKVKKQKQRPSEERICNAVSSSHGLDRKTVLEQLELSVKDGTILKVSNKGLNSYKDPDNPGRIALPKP
Strand,E-score
AGGGTTTC,-0.0767
AAGCAAAA,-0.252
TGGATAAA,-0.104
ATCGCGAG,0.225
GAACTCTA,-0.25
GGAACGCC,0.208
GTGTGCAA,-0.202
AGCAACTG,-0.111
CCAGTAGA,-0.256
ACATGTCT,-0.0771
GTGATTTA,-0.0583
AACCCGCA,0.141
ACTGTTCT,-0.205
ACAGACCC,0.0122
CACCGAGC,0.0697
ATGCTATC,-0.102
CTTAAAAG,-0.196

# Sample 2
# Target: ABI1, truncated, D143A, DHFR fusion (Arabidopsis thaliana)
# Technique: DHFR PCA, deep sequencing
# Matrix: yeast
# Setting: methotrexate growth selection, single substitutions
# Added: (+)-ABA 0.0091 µM
# Relative to: wild-type fitted maximum
# Direction: higher = stronger binding
# Parent: PYL1, truncated, DHFR fusion (Arabidopsis thaliana); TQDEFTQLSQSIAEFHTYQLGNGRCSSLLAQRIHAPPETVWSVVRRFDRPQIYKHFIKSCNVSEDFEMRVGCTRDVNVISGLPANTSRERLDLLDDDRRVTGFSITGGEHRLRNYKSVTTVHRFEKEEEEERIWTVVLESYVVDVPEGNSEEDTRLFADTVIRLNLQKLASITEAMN; partner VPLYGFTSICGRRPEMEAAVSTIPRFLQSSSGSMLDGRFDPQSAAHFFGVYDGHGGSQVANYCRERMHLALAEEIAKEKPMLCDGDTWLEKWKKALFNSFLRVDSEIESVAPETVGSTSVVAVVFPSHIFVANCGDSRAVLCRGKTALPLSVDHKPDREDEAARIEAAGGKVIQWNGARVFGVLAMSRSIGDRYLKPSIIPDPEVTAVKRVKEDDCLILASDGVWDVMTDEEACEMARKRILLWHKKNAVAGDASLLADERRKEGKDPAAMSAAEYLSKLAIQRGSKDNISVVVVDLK
Variant,relative binding score
L138C,1.64%
N85K,46.6%
Q7M,23.3%
W41L,0.7%
R155D,-4.94%
I172G,-7.34%
Y115I,1.5%
L82C,15%
S171A,41.3%
Q7Y,20.7%
T17W,-9.41%
V137F,0.336%
R69M,5.74%
I172C,1.41%
N114A,-0.739%
S59D,26.1%
V145P,0.265%
F66S,3.74%
T86G,-1.8%
E152V,5.94%
E130L,16.8%
S63T,18%
D96I,-7.06%

# Sample 3
# Target: CCNF, cyclin fold, Cln2 fusion (human)
# Technique: yeast growth competition, sequencing
# Matrix: yeast
# Setting: strong parent motif
# Relative to: not given
# Direction: higher = stronger binding
# Parent: NPAT docking peptide (human); PCHRRVLCFDSTT
Variant,normalised enrichment score
PCHRAVLCFDSTT [R5A],0.257
PCHRRVLCFASTT [D10A],2.68
PCHRRVACFDSTT [L7A],0.000828
PCHRRVLCFDSAT [T12A],3.46
PCHRRVLCLDSTT [F9L],0.562
PCHRRVLCFDSTA [T13A],3.6
ACHRRVLCFDSTT [P1A],4.56

# Sample 4
# Target: RNA binding protein fox-1 homolog 2, RRM domain, GST-SBP tag (RBFOX2, Homo sapiens, UniProt O43251-10, residues 100-194)
# Technique: RNA Bind-n-Seq
# Molecule type: RNA
# Matrix: in vitro
# Concentration: 365 nM
# Setting: natural RNA segment, single round, ends assumed
# Relative to: no-protein control
# Direction: higher = stronger binding
# All sequences stand within: GGGAGUUCUACAGUCCGACGAUC … UGGAAUUCUCGGGUGCCAA
# Residues (chain): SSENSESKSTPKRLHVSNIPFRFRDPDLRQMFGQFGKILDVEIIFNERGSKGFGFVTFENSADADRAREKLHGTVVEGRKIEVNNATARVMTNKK
Strand,RBNS enrichment (R)
UUUGAUUUAGAUUGAGUAAGAUUUACCCAGAAUGUCAGAUUCCUUUCCCUUUAGCACGUUUAAAGUUCUGUGUAUUUAAUUGUAAACUGUACUAGUCUGUGUGGGACUGU,7.79
UACCCAUCCUCCCUUUCUGAACCUUCCCUCAGGGUGGGGCUGGAUUAUGGAGGAAGGAAUGGAUCUUUGGUCAGAUGAGACUAACAGAGGGACUCACUGUCAGAGUUAGC,0.181
GAUUGUGAGUGUGUGUGGGGUGCUCACACGCGUGCCAGUCUUUUUGUACUGUAACUACCUCAUGGUUUGAAUGAUGAUUGUACUGCUGGUUGUGUUAACAGAGCACAUUU,1.17
UGGCGGAGAGAAGAAAAUGGGAAAGACAUCUCACUGGUGCUUUUCUCUUUUGUUUUAGUGCCCCCCGCCCCCAUCCCUAUAAUAUCUGUAACUACUCCUAAAAAGGUUUU,0.357
UGGAAUGAAUUUUUGUCUUUUGUAUUUUAAUCACUUGAGUGAAUCAACUAUUAGCAAAUUCCAUUUGGUGGCUUAGCAUUGGAAAGAACAGAUAAAGUAGCUGAUGCCUA,1.33
AUAUCCAUAGAUAUAGUACUUUGUCUUGUCAGGAGGUGGAAACCGAAAUAAAUUAUCUUUUAAAAAGAAGUCAGAUUAACUUCUUUUCAUGUAUCCGUGAGGACUUCACG,0.483
CGCCCCCGCCCUCGCUCCGGGUGCGUGACCGGCCCGCCACCUUGUACAGAACCAGCACUCCCAGGGCCCGAGCGCGUGCCUUCCCCGUGCGGCCCGUGCGCAGCCGCGCU,0.55
AAUUCUUUAAAAUUCACUAAUGAUUGAGGUCCAUAUUUAGUGGUACUCUGAAAUUGGUCACUUUCCUAUUACACGGAGUGUGCUAAAACUAAAAAGCAUUUUGAAACAUA,0.609
ACACAUAGAUCGGAGUGAACAGAGAGCUUUGCCUCAAUCAUUUUUCUGGCUUUCCUCUGCAGCCAGGGAAGUGGACAGGAAACUGGACCUUAGGGACACCCUGCAGAGUA,0.472
CUAGAGAGUUUGAGGAUUGCUUUUUAAAAAAGACAGCAAACUUUUUUUUUUAUUUAAAAAAAGAUAUAUUAACAGUUUUAGAAGUCAGUAGAAUAAAAUCUUAAAGCACU,0.538
AACAGAAGAGAGAAGGAGGCAGGGAGAUGUAUUUCUUAGGGCUCACCCCUUCACAGACUGACAGAAUGGUUUUGUUUUGUUUUGUUUUGUUUUGUUUUGUUUUUGAGAUG,0.526
CAGGUAACCUUGAGCUCAGCUUGGGCCAGCUUUGAACAGUGCUUCUGAGGUCCCCAGAGACCAAAGCCAGAUCGUCUGUCCCCCACACCUUAGGUGGGCACAGGAGGGCC,0.251

# A few entries again (sample 1):
Strand,E-score
TGGATAAA,-0.104
AACCCGCA,0.141
CTTAAAAG,-0.196
